Results from different studies.
Every numbered part comes from another study and shows a few of its results, in no order.
UniProt Q9UM73, sequence (whole entry, unmodified, looked up): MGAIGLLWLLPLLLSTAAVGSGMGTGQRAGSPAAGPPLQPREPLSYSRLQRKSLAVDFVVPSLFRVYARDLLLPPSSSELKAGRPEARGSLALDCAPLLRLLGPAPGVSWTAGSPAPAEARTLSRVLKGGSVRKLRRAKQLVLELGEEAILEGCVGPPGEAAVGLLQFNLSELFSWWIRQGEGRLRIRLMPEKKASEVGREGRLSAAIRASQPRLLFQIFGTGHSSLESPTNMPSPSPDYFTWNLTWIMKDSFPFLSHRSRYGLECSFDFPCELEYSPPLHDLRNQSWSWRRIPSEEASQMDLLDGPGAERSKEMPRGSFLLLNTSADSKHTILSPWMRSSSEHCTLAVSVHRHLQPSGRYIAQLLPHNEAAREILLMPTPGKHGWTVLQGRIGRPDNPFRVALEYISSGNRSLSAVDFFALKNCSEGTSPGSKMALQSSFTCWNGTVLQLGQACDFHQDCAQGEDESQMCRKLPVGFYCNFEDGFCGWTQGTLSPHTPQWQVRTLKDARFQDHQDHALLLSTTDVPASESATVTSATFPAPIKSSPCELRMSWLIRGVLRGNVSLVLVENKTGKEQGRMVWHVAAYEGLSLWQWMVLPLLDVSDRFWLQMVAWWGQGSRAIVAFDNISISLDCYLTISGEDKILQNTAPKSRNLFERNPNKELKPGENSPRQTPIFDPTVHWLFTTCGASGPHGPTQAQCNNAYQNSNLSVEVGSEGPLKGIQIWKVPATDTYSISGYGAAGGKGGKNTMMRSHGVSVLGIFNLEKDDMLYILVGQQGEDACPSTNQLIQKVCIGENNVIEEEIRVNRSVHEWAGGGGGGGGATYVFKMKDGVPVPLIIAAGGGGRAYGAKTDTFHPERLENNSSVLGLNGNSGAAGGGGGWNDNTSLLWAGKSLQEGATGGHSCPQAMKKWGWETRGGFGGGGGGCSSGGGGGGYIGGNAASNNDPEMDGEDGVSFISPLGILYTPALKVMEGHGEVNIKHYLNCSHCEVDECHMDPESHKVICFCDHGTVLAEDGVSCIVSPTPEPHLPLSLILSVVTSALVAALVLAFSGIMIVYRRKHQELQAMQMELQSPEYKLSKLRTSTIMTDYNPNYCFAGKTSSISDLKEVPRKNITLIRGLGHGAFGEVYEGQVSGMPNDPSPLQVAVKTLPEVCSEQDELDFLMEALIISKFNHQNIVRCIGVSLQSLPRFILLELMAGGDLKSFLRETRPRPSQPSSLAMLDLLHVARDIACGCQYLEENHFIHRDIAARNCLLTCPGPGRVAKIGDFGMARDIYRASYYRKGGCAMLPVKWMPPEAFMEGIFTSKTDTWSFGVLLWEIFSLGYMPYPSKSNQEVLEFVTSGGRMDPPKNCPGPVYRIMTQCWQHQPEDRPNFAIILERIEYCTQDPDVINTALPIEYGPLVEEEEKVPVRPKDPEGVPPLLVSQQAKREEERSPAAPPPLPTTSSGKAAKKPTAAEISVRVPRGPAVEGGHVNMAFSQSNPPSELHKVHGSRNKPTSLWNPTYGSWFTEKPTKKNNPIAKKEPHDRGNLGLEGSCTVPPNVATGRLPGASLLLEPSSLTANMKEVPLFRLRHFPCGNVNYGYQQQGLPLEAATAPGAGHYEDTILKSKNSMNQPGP
UniProt P35968, sequence (whole entry, looked up): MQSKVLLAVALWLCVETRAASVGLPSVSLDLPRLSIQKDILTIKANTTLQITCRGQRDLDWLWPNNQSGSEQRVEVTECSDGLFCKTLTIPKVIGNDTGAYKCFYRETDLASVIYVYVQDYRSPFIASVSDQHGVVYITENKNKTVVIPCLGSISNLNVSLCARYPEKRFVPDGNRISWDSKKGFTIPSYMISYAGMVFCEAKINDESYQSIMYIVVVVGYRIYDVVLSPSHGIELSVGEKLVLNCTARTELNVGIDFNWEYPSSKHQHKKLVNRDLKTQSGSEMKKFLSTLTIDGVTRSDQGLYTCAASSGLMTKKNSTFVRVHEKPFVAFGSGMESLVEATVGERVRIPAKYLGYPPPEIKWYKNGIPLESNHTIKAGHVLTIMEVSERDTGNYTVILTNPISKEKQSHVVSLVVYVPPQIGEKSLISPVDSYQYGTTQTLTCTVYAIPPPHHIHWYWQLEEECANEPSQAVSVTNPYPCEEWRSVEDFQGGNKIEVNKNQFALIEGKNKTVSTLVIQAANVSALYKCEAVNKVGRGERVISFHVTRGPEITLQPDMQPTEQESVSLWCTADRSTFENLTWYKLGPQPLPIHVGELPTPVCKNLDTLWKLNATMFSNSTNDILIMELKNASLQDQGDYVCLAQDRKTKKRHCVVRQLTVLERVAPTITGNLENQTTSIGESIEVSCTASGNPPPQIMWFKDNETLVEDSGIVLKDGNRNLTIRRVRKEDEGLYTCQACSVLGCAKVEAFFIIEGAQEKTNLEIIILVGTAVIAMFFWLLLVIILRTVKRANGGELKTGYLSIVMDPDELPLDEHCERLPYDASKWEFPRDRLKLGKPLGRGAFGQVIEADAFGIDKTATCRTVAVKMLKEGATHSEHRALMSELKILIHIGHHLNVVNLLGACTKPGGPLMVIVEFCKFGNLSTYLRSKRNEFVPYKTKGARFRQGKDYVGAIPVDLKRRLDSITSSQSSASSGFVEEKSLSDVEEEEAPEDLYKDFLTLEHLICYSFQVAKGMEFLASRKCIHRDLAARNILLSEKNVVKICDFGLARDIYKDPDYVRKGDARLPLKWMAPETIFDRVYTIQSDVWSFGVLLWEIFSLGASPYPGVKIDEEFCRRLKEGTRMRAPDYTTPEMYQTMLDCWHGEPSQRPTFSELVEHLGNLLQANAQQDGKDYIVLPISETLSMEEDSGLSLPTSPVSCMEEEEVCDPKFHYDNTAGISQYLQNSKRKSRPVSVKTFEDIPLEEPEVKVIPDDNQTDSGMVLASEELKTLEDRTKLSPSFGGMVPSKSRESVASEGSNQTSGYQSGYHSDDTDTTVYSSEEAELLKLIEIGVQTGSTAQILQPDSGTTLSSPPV
UniProt P29376, sequence (whole entry, looked up): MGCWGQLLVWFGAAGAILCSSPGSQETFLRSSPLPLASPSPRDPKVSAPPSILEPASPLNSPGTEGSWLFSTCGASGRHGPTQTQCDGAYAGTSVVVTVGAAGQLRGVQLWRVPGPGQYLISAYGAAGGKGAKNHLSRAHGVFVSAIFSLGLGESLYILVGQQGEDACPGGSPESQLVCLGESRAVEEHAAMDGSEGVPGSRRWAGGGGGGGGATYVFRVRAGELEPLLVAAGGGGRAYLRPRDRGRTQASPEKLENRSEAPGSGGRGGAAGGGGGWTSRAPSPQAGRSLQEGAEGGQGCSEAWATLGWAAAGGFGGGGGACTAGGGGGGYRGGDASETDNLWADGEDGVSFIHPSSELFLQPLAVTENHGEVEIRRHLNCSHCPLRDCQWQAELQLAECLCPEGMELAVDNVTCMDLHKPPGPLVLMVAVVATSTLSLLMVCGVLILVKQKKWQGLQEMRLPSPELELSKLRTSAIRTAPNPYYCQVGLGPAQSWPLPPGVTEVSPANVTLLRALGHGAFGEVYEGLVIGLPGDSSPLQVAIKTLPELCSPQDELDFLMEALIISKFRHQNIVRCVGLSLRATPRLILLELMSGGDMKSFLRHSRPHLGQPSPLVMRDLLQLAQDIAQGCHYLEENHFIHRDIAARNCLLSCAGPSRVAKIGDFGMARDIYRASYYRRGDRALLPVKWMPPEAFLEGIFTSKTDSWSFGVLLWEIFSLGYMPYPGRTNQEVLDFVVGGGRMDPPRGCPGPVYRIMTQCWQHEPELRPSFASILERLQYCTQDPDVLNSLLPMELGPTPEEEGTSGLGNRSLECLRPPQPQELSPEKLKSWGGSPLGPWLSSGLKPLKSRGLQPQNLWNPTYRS
UniProt P57059, sequence (whole entry, looked up): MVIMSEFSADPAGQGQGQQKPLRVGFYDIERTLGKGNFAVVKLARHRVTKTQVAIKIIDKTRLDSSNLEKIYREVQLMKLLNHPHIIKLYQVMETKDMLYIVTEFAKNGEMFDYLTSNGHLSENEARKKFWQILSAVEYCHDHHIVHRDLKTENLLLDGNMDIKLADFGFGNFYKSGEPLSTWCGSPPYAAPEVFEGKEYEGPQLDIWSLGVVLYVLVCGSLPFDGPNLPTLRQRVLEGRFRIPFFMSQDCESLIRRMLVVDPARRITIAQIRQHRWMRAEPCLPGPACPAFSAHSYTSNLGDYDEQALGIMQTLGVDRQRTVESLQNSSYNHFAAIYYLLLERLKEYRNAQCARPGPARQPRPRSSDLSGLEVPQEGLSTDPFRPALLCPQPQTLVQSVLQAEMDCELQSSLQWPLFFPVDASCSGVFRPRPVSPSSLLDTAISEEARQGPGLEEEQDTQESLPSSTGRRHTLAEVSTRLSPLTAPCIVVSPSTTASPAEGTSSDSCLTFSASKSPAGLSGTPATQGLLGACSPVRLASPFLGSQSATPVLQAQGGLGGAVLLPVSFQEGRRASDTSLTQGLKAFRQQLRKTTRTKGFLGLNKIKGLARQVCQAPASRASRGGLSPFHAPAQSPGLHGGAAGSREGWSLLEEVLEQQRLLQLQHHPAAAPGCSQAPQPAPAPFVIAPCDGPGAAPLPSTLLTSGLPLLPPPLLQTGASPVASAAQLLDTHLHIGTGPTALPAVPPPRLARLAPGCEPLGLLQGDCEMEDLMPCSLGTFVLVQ
UniProt Q86Y07, sequence (whole entry, looked up): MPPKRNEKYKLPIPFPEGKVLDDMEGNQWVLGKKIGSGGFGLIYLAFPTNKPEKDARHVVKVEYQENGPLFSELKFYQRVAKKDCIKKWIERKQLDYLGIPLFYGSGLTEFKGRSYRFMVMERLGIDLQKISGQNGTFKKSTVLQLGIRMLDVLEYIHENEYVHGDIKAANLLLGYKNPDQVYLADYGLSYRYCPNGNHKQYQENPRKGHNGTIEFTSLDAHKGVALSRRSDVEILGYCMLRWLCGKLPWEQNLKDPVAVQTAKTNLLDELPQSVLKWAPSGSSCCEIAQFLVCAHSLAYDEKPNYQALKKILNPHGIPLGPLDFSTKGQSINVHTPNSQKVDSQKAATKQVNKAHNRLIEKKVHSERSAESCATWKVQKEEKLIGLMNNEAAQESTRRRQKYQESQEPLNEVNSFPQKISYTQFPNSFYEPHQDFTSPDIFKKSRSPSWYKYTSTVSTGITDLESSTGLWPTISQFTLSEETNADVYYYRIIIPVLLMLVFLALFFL

Sample 1
SMILES: CN(C(=O)c1ccccc1)c1cc(N(C)c2ccc3c(c2)CCc2ccc(C(=O)NCCN4CCOCC4)cc2C3=O)ccc1F
Tested at: 1 µM
target | test | remaining binding [%]
Death-associated protein kinase 3 (DAPK3, Homo sapiens, UniProt O43293) | cell-free assay, competition with immobilised ligand | 81
Serine/threonine-protein kinase SIK1 (SIK1, Homo sapiens, UniProt P57059) | competition binding | 100
Receptor-type tyrosine-protein kinase FLT3 (FLT3, Homo sapiens, UniProt P36888) | cell-free assay, competition with immobilised ligand | 86
Calcium/calmodulin-dependent protein kinase type 1 (CAMK1, Homo sapiens, UniProt Q14012) | cell-free assay, competition with immobilised ligand | 93
Activin receptor type-2A (ACVR2A, Homo sapiens, UniProt P27037) | cell-free assay, competition with immobilised ligand | 100
Calcium/calmodulin-dependent protein kinase kinase 2 (CAMKK2, Homo sapiens, UniProt Q96RR4) | cell-free assay, competition with immobilised ligand | 92
Discoidin domain-containing receptor 2 (DDR2, Homo sapiens, UniProt Q16832) | cell-free assay, competition with immobilised ligand | 100
Dual serine/threonine and tyrosine protein kinase (DSTYK, Homo sapiens, UniProt Q6XUX3) | cell-free assay, competition with immobilised ligand | 83
Serine/threonine-protein kinase WNK4 (WNK4, Homo sapiens, UniProt Q96J92) | cell-free assay, competition with immobilised ligand | 100
Serine/threonine-protein kinase RIO3 (RIOK3, Homo sapiens, UniProt O14730) | cell-free assay, competition with immobilised ligand | 95
Leukocyte tyrosine kinase receptor (LTK, Homo sapiens, UniProt P29376) | cell-free assay, competition with immobilised ligand | 100
Interferon-induced, double-stranded RNA-activated protein kinase (EIF2AK2, Homo sapiens, UniProt P19525) | cell-free assay, competition with immobilised ligand | 53
Vascular endothelial growth factor receptor 2 (KDR, Homo sapiens, UniProt P35968) | cell-free assay, competition with immobilised ligand | 81
ALK tyrosine kinase receptor (ALK, Homo sapiens, UniProt Q9UM73, C1156Y) | cell-free assay, competition with immobilised ligand | 100
Serine/threonine-protein kinase ICK (CILK1, Homo sapiens, UniProt Q9UPZ9) | cell-free assay, competition with immobilised ligand | 88
Serine/threonine-protein kinase VRK2 (VRK2, Homo sapiens, UniProt Q86Y07) | cell-free assay, competition with immobilised ligand | 100
Inhibitor of nuclear factor kappa-B kinase subunit epsilon (IKBKE, Homo sapiens, UniProt Q14164) | cell-free assay, competition with immobilised ligand | 79
Serine/threonine-protein kinase Sgk2 (SGK2, Homo sapiens, UniProt Q9HBY8) | cell-free assay, competition with immobilised ligand | 99
Serine/threonine-protein kinase PAK 1 (PAK1, Homo sapiens, UniProt Q13153) | cell-free assay, competition with immobilised ligand | 88
Serine/threonine-protein kinase Nek6 (NEK6, Homo sapiens, UniProt Q9HC98) | cell-free assay, competition with immobilised ligand | 91
Receptor-type tyrosine-protein kinase FLT3 (FLT3, Homo sapiens, UniProt P36888, K663Q) | cell-free assay, competition with immobilised ligand | 89
MAP kinase-interacting serine/threonine-protein kinase 1 (MKNK1, Homo sapiens, UniProt Q9BUB5) | cell-free assay, competition with immobilised ligand | 100
Calcium/calmodulin-dependent protein kinase type II subunit delta (CAMK2D, Homo sapiens, UniProt Q13557) | cell-free assay, competition with immobilised ligand | 100

Sample 2
Structure (SMILES): CC(C)n1cnc(-c2ccc(F)cc2)c1-c1ncc(C(=O)Nc2ccc(N3CCN(C)CC3)cc2)[nH]1
test | system | conditions | patients with TEAE [%]
phase 2a trial | idiopathic pulmonary fibrosis patients | oral, 30 mg once daily, urine red cells, grade 3 | 0
phase 2a trial | idiopathic pulmonary fibrosis patients | oral, 60 mg once daily, blood/lymphatic disorders, grade 3 | 0
phase 2a trial | patients with idiopathic pulmonary fibrosis | 60 mg once daily, atopic dermatitis, grade 4 | 0
phase 2a trial | patients with idiopathic pulmonary fibrosis | dose not given, nervous system disorders SOC, grade 4, all arms | 0
phase 2a trial | idiopathic pulmonary fibrosis patients | oral, 30 mg once daily, LDL increased, grade 1 | 0
phase 2a trial | patients with idiopathic pulmonary fibrosis | 60 mg once daily, skin papilloma, maximum intensity grade 5 | 0
phase 2a trial | idiopathic pulmonary fibrosis patients | oral, 60 mg once daily, blood/lymphatic disorders, grade 4 | 0
phase 2a trial | idiopathic pulmonary fibrosis patients | oral, 60 mg once daily, GLDH increased, grade 3 | 0
phase 2a trial | idiopathic pulmonary fibrosis patients | oral, 30 mg once daily, ESR increased, grade 4 | 0
phase 2a trial | patients with idiopathic pulmonary fibrosis | 60 mg once daily, atopic dermatitis, grade 3 | 0
phase 2a trial | idiopathic pulmonary fibrosis patients | oral, 60 mg once daily, disc protrusion, grade 1 | 1
item: LDL increased | idiopathic pulmonary fibrosis patients | 30 mg once daily | 0
phase 2a trial | patients with idiopathic pulmonary fibrosis | 30 mg once daily, nervous system disorders SOC, grade 1 | 0
phase 2a trial | idiopathic pulmonary fibrosis patients | oral, 60 mg once daily, CK-MB increased, grade 4 | 0
phase 2a trial | idiopathic pulmonary fibrosis patients | oral, 30 mg once daily, LDL increased, grade 3 | 0
phase 2a trial | idiopathic pulmonary fibrosis patients | oral, 30 mg once daily, renal/urinary disorders, grade 1 | 2
phase 2a trial | patients with idiopathic pulmonary fibrosis | 60 mg once daily, eye swelling, grade 1 | 0

Sample 3
SMILES: Oc1cccc(-c2nc(N3CCOCC3)c3oc4ncccc4c3n2)c1
Effect on: enzyme activity
Mode: inhibitor
Tested at: 0.5 µM
Baseline: control
target | remaining activity [%]
Serine/threonine-protein kinase MRCK alpha (CDC42BPA, Homo sapiens, UniProt Q5VT25) | 94.5
Insulin receptor (INSR, Homo sapiens, UniProt P06213) | 98.6
Vascular endothelial growth factor receptor 3 (FLT4, Homo sapiens, UniProt P35916) | 104
Tyrosine-protein kinase ITK/TSK (ITK, Homo sapiens, UniProt Q08881) | 93.1
cAMP-dependent protein kinase catalytic subunit PRKX (PRKX, Homo sapiens, UniProt P51817) | 96.2
Homeodomain-interacting protein kinase 1 (HIPK1, Homo sapiens, UniProt Q86Z02) | 101
Tyrosine-protein kinase Fyn (FYN, Homo sapiens, UniProt P06241) | 91.7
Serine/threonine-protein kinase 25 (STK25, Homo sapiens, UniProt O00506) | 93.4
Megakaryocyte-associated tyrosine-protein kinase (MATK, Homo sapiens, UniProt P42679) | 86.7
ALK tyrosine kinase receptor (ALK, Homo sapiens, UniProt Q9UM73) | 90.5
Tyrosine-protein kinase Fgr (FGR, Homo sapiens, UniProt P09769) | 94.8
Tyrosine-protein kinase Fer (FER, Homo sapiens, UniProt P16591) | 97.8
PAS domain-containing serine/threonine-protein kinase (PASK, Homo sapiens, UniProt Q96RG2) | 83.8
LIM domain kinase 1 (LIMK1, Homo sapiens, UniProt P53667) | 93.7
Serine/threonine-protein kinase NLK (NLK, Homo sapiens, UniProt Q9UBE8) | 97.4
Serine/threonine-protein kinase N1 (PKN1, Homo sapiens, UniProt Q16512) | 101
Serine/threonine-protein kinase TAO3 (TAOK3, Homo sapiens, UniProt Q9H2K8) | 86.8
Proto-oncogene tyrosine-protein kinase Src (SRC, Homo sapiens, UniProt P12931) | 97.2
MAP/microtubule affinity-regulating kinase 3 (MARK3, Homo sapiens, UniProt P27448) | 97.4

Sample 4
Target: Bromodomain-containing protein 4, BD1 (BRD4, Homo sapiens, UniProt O60885)
Tested at: 50 µM
SMILES | inhibition
O=C(O)c1ccc(-c2c[nH]c3ncc(-c4ccccc4)cc23)cc1C1CCCC1 | 7.35%
CNC(=O)c1cc(Oc2ccc(NC(=O)Nc3cc(C(C)(C)C)nn3-c3ccc4ncccc4c3)c(F)c2)ccn1 | 24.1%
CCN(CC)CCCCNc1ncc2cc(-c3cc(OC)cc(OC)c3)c(NC(=O)NC(C)(C)C)nc2n1 | 4.95%
Cn1cnc2c(F)c(Nc3ccc(Br)cc3Cl)c(C(=O)NOCCO)cc21 | 3.1%
CC(C)n1nc(-c2ccc3oc(N)nc3c2)c2c(N)ncnc21 | -0.8%
CCCS(=O)(=O)Nc1ccc(F)c(C(=O)c2c[nH]c3ncc(-c4ccc(Cl)cc4)cc23)c1F | 17.6%
N#CCNC(=O)c1ccc(-c2ccnc(Nc3ccc(N4CCOCC4)cc3)n2)cc1 | 15.7%
CC(=O)c1c(C)c2cnc(Nc3ccc(N4CCNCC4)cn3)nc2n(C2CCCC2)c1=O | 38.4%
CC(=O)Nc1cccc(-n2c(=O)n(C3CC3)c(=O)c3c(Nc4ccc(I)cc4F)n(C)c(=O)c(C)c32)c1 | 21%
CC(C)[C@H](CO)Nc1nc(Nc2cccc(Cl)c2)c2ncn(C(C)C)c2n1 | 46%

Excerpt of the above (sample 1):
target | test | remaining binding [%]
MAP kinase-interacting serine/threonine-protein kinase 1 (MKNK1, Homo sapiens, UniProt Q9BUB5) | cell-free assay, competition with immobilised ligand | 100
Activin receptor type-2A (ACVR2A, Homo sapiens, UniProt P27037) | cell-free assay, competition with immobilised ligand | 100
Vascular endothelial growth factor receptor 2 (KDR, Homo sapiens, UniProt P35968) | cell-free assay, competition with immobilised ligand | 81
ALK tyrosine kinase receptor (ALK, Homo sapiens, UniProt Q9UM73, C1156Y) | cell-free assay, competition with immobilised ligand | 100
Serine/threonine-protein kinase Nek6 (NEK6, Homo sapiens, UniProt Q9HC98) | cell-free assay, competition with immobilised ligand | 91
Receptor-type tyrosine-protein kinase FLT3 (FLT3, Homo sapiens, UniProt P36888, K663Q) | cell-free assay, competition with immobilised ligand | 89
Serine/threonine-protein kinase Sgk2 (SGK2, Homo sapiens, UniProt Q9HBY8) | cell-free assay, competition with immobilised ligand | 99
